Measured values collected from several papers.
Several values in a cell are separate wells, animals, samples, runs or records.

The remaining compound of `CC(=O)OC/C(C)=C/CCP(=O)(OCOC(=O)CC1CCOCC1)Oc1ccc(C(C)C)cc1` (stereo not shown) is reported as 0% (50% CD1 mouse plasma; 100 µM, 2 h, pH 7.5, 37 °C).
The remaining compound of `COc1c(N2CC3CCCNC3C2)c(F)cc2c(=O)c(C(=O)OCc3cnc([N+](=O)[O-])s3)cn(C3CC3)c12` (stereo not shown) is reported as over 75% (LC-MS; human plasma, EDTA; 30 µM, 6 h; baseline: initial amount).
`CC(C)N(CCc1c[nH]c2cccc(OC(=O)CCCC(=O)O)c12)C(C)C.Cl` gave a remaining compound of 39% (beagle dog plasma; 1 µg/mL, 4 h, 37 °C).
For `CC(C)(C)[C@H](NC(=O)C(F)(F)F)C(=O)N1C[C@H]2[C@@H]([C@H]1C(=O)N[C@H](C#N)C[C@@H]1CCNC1=O)C2(C)C`, the remaining compound was 35.7% (human liver microsomes; 60 min, together with: NADPH).
For `C[C@@H](NC(=O)[C@@H](N)Cc1ccc(O)cc1)C(=O)NCC(=O)N[C@@H](Cc1ccc(F)cc1)C(=O)N1CCN(C(=O)[C@H](Cc2ccc(F)cc2)NC(=O)CNC(=O)[C@@H](C)NC(=O)[C@@H](N)Cc2ccc(O)cc2)CC1`, the remaining compound was 98.8% (LC-MS; human plasma; 5 µM, 1 h, 37 °C).
For `CC(=O)OC/C(C)=C/CCP(=O)(OCOC(=O)C1CCOCC1)Oc1ccc(C(C)C)cc1` (stereo not shown), the remaining compound was 0% (50% CD1 mouse plasma; 100 µM, 2 h, pH 7.5, 37 °C).
With `CCC[C@@](N)(CO)CCc1ccc(OCCCCCC(C)C)cc1` the remaining compound was 16% (cynomolgus monkey liver microsomes; 1 h).
`O=S(=O)(F)Oc1cc(C(F)(F)F)cc(C(F)(F)F)c1` gave a remaining compound of 9% (HEPES buffer; 1 mM, 20 h, pH 7.4, 10% acetonitrile).
The remaining compound of `C/C(=C\CCP(=O)(OCOC(=O)CC1CCCCC1)Oc1ccc(C(C)C)cc1)CO` (stereo not shown) is reported as 0% (50% Sprague-Dawley rat plasma; 100 µM, 2 h, pH 7.5, 37 °C).
The remaining compound of `O=S(=O)(F)c1cc(C(F)(F)F)cc(C(F)(F)F)c1` is reported as 98% (HPLC-MS; HEPES buffer with 10% acetonitrile; 1 mM, 1 h, pH 7.4).
With `CC[C@H](C)[C@H](NC(=O)[C@H](CCCCN)NC(=O)[C@H](CC(N)=O)NC(=O)[C@H](CCCNC(=N)N)NC(=O)[C@H](C)NC(=O)[C@H](CC(C)C)NC(=O)[C@H](CC(C)C)NC(=O)[C@H](CCSC)NC(=O)[C@H](Cc1c[nH]cn1)NC(=O)[C@H](CC(C)C)NC(=O)[C@@H](N)CC(C)C)C(=O)N[C@@H](CCCNC(=N)N)C(=O)N[C@H](C(=O)N[C@@H](CC(C)C)C(=O)N[C@@H](CCCCN)C(=O)N[C@@H](CC(N)=O)C(=O)N[C@@H](CC(N)=O)C(=O)N[C@@H](CCSC)C(=O)N[C@@H](Cc1ccccc1)C(=O)N[C@@H](CO)C(=O)N[C@@H](CCCCN)C(=O)N[C@@H](Cc1ccccc1)C(=O)N[C@@H](CCCCN)C(=O)N[C@@H](CCCCN)C(=O)N[C@@H](CC(C)C)C(=O)N[C@@H](CCCCN)C(=O)N[C@@H](CO)C(=O)N[C@@H](CC(C)C)C(=O)O)[C@@H](C)O` the remaining compound was at most 65% (UPLC-MS; 25% human serum; 6 h).
The remaining compound of `CC(=O)OC/C(C)=C/CCP(=O)(OCOC(=O)CC1CCOCC1)Oc1cccc2ccccc12` (stereo not shown) is reported as 0% (50% CD1 mouse plasma; 100 µM, 2 h, pH 7.5, 37 °C).
For `CC[C@@H](C)[C@@H](NC(=O)[C@@H](Cc1ccc(O)cc1)NC(=O)[C@H]1CCCN1C(=O)[C@@H](CCCNC(=N)N)NC(=O)[C@H](N)Cc1c[nH]cn1)C(=O)N[C@H](C)C(=O)N[C@H](Cc1c[nH]cn1)C(=O)N[C@H](CCCNC(=N)N)C(=O)N[C@@H](C(=O)N[C@H](Cc1ccc(O)cc1)C(=O)N[C@H](CO)C(=O)N[C@H](Cc1ccccc1)C(N)=O)C(C)C`, the remaining compound was 93.7% and 93.9% and 85.1% (10% human serum; 24 h).
`COc1ccc(C(=O)OCOP(=O)(CC/C=C(\C)CO)Oc2ccc(C(C)C)cc2)cc1` (stereo not shown) has a remaining compound of 0% (50% CD1 mouse plasma; 100 µM, 2 h, pH 7.5, 37 °C).
The remaining compound of `CC[C@@H](C)[C@@H](NC(=O)[C@@H](Cc1ccc(O)cc1)NC(=O)[C@H]1CCCN1C(=O)[C@@H](CCCNC(=N)N)NC(=O)[C@H](N)Cc1c[nH]cn1)C(=O)N[C@H](C)C(=O)N[C@H](Cc1c[nH]cn1)C(=O)N[C@H](CCCNC(=N)N)C(=O)N[C@H](CCCCNC(=O)c1cccc(S(=O)(=O)F)c1)C(=O)N[C@H](Cc1ccc(O)cc1)C(=O)N[C@H](CO)C(=O)N[C@H](Cc1ccccc1)C(N)=O` is reported as 109% and 111% and 110% (10% human serum; 6 h).
With `c1ccc([C@@H]2C[C@H]2NC2CCNCC2)cc1` the remaining compound was 96% (aqueous buffer; 4 days, 37 °C).
The remaining compound of `CCN(CC)CCOC(=O)c1ccc(N)cc1` is reported as 0% (human plasma; 4 h).
The remaining compound of `CC(C)CC(=O)OC[C@H]1O[C@@](C#N)(c2ccc3c(N)ncnn23)[C@H](O)[C@@H]1O` is reported as 0% (Mice plasma; 5 µM, 60 min).
`C/C(=C\CCP(=O)(OCOC(=O)c1ccccc1)Oc1ccc(C(C)C)cc1)CO` (stereo not shown) gave a remaining compound of 0% (50% CD1 mouse plasma; 100 µM, 2 h, pH 7.5, 37 °C).

Excerpt of the above:
The remaining compound of `CCN(CC)CCOC(=O)c1ccc(N)cc1` is reported as 0% (human plasma; 4 h).
With `CCC[C@@](N)(CO)CCc1ccc(OCCCCCC(C)C)cc1` the remaining compound was 16% (cynomolgus monkey liver microsomes; 1 h).
For `CC[C@@H](C)[C@@H](NC(=O)[C@@H](Cc1ccc(O)cc1)NC(=O)[C@H]1CCCN1C(=O)[C@@H](CCCNC(=N)N)NC(=O)[C@H](N)Cc1c[nH]cn1)C(=O)N[C@H](C)C(=O)N[C@H](Cc1c[nH]cn1)C(=O)N[C@H](CCCNC(=N)N)C(=O)N[C@@H](C(=O)N[C@H](Cc1ccc(O)cc1)C(=O)N[C@H](CO)C(=O)N[C@H](Cc1ccccc1)C(N)=O)C(C)C`, the remaining compound was 93.7% and 93.9% and 85.1% (10% human serum; 24 h).
